Experimental data gathered from unrelated publications.
Protocols differ between the studies behind these lines.
Organism: Human immunodeficiency virus 1

With CN(C)CCCn1c(=O)c2cc(Br)c3c(=O)n(CCCN(C)C)c(=O)c4c5[nH]c6ccc(C(=O)O)cc6[nH]c5c(c1=O)c2c34 the IC50 was 0.863 µM (viral replication; TZM-bl, NL43; 48 h).
Cn1cc(-c2cc(C(F)(F)F)cc(C(F)(F)F)c2)c2ccc(Cl)nc21 gave an IC50 of 88.5 µM (cell growth or viability, MTT; TZM-bl; 48 h).
For CC1=C(c2nc(-c3ccc(C#N)cc3)cs2)C(c2cc3ccccc3n2C)NC(=O)N1 (stereo not shown), the IC50 was 0.52 µM (viral replication; MAGI-CCR5, NL43).
For O=C(O)c1cc(O)c(O)c(O)c1, the IC50 was 6.24 µM (viral replication, inhibitor; TZM-bl, NL43; 48 h).
For C[N+](C)(C)CCCn1c(=O)c2ccc3c(=O)n(CCC[N+](C)(C)C)c(=O)c4c5[nH]c6ccccc6[nH]c5c(c1=O)c2c34, the IC50 was > 5 µM (viral replication; TZM-bl, NL43; 48 h).
NCC(NC(=O)c1ccc(-c2ccc3c(c2)OC(F)(F)O3)[nH]1)c1ncc(CO)s1 (stereo not shown) has an IC50 of 2.7 µM (viral replication, ELISA; MT2).
With COC(=O)c1ccc(Oc2ccccc2NC(=O)c2ccccc2OC)cc1 the IC50 was 40.6 µM (viral replication; MT4; 7 days).
For Cn1cc(-c2ccc3c(c2)OCO3)c2ccc(Cl)nc21, the IC50 was 44.9 µM (cell growth or viability, MTT; TZM-bl; 48 h).
COC(=O)c1ccc(COc2ccccc2NC(=O)c2ccccc2OC)cc1 gave an IC50 of > 100 µM (viral replication; MT4; 7 days).
Cc1ccc(-c2ccc3c(-c4ccccc4)cn(C)c3n2)cc1 has an IC50 of > 200 µM (cell growth or viability, MTT; TZM-bl; 48 h).
Cc1nc(C(CN)NC(=O)C(=O)Nc2ccc3c(c2)OCO3)sc1CO (stereo not shown) has an IC50 of > 79 µM (viral replication, ELISA; MT2).
The IC50 of COc1ccccc1NC(=O)c1ccccc1Oc1ccc2c(c1)OCO2 is reported as 102 µM (viral replication; MT4; 7 days).
With COc1ccc(-c2ccc3c(-c4ccccc4)cn(C)c3n2)cc1 the IC50 was 50.5 µM (cell growth or viability, MTT; TZM-bl; 48 h).
With COc1ccccc1NC(=O)c1ccccc1Sc1ccc([N+](=O)[O-])cc1 the IC50 was > 100 µM (viral replication; MT4; 7 days).
COc1ccc(Cn2cc(-c3ccsc3)c3ccc(-c4ccncc4)nc32)cc1 gave an IC50 of 17.3 µM (cell growth or viability, MTT; TZM-bl; 48 h).
The IC50 of COc1ccccc1NC(=O)c1ccccc1OCc1ccc2c(c1)OCO2 is reported as 45.2 µM (viral replication; MT4; 7 days).
With CN(C)CCCn1c(=O)c2cc(Br)c3c(=O)n(CCCN(C)C)c(=O)c4c5[nH]c6ncccc6[nH]c5c(c1=O)c2c34 the IC50 was 0.0635 µM (viral replication; TZM-bl, NL43; 48 h).
With O=C(Nc1ccccc1CO)c1ccccc1Sc1ccc([N+](=O)[O-])cc1 the IC50 was 93 µM (viral replication; MT4; 7 days).
CC1(C)Oc2ccc(-c3ccc(C(=O)NC(CN)c4ncc(CO)s4)[nH]3)cc2O1 (stereo not shown) has an IC50 of 16.2 µM (viral replication, ELISA; MT2).
The IC50 of CC(C)(C)OC(=O)N1CCN(C(=O)c2ccccc2Sc2ccc([N+](=O)[O-])cc2)CC1 is reported as 3.7 µM (viral replication; MT4; 7 days).
Cn1cc(-c2ccc3c(c2)OCO3)c2ccc(-c3ccncc3)nc21 has an IC50 of > 200 µM (cell growth or viability, MTT; TZM-bl; 48 h).
NCC(NC(=O)c1ccc(-c2ccc3nsnc3c2)[nH]1)c1ncc(CO)s1 (stereo not shown) has an IC50 of 4 µM (viral replication, ELISA; MT2).

Some of these lines once more:
With CN(C)CCCn1c(=O)c2cc(Br)c3c(=O)n(CCCN(C)C)c(=O)c4c5[nH]c6ccc(C(=O)O)cc6[nH]c5c(c1=O)c2c34 the IC50 was 0.863 µM (viral replication; TZM-bl, NL43; 48 h).
Cn1cc(-c2cc(C(F)(F)F)cc(C(F)(F)F)c2)c2ccc(Cl)nc21 gave an IC50 of 88.5 µM (cell growth or viability, MTT; TZM-bl; 48 h).
For CC1=C(c2nc(-c3ccc(C#N)cc3)cs2)C(c2cc3ccccc3n2C)NC(=O)N1 (stereo not shown), the IC50 was 0.52 µM (viral replication; MAGI-CCR5, NL43).
